Measurements gathered from unrelated publications.
SLC6A2: Sodium-dependent noradrenaline transporter (SLC6A2, Homo sapiens, UniProt P23975)
Chain of UniProt P23975 (whole entry, looked up): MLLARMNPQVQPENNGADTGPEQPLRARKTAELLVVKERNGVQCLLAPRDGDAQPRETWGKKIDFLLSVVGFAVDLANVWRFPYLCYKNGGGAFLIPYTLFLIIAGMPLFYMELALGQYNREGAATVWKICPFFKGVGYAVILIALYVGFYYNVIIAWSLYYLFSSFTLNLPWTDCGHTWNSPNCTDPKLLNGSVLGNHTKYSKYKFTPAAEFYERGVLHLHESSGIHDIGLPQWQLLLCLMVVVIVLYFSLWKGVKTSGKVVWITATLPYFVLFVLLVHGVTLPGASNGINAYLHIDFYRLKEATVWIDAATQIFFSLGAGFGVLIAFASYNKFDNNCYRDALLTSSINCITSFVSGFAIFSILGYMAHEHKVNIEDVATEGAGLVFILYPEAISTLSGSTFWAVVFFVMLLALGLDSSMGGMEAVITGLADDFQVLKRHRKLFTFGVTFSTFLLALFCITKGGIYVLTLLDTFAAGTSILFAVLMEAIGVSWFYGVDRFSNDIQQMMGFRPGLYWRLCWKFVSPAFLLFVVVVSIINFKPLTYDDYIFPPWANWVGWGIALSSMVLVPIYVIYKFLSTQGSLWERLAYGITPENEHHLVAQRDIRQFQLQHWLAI

| SMILES | target or system | assay | system | conditions | how to read | quantity | value |
| --- | --- | --- | --- | --- | --- | --- | --- |
| CC(C)CC(=O)OC[C@H]1O[C@@](C#N)(c2ccc3c(N)ncnn23)[C@H](O)[C@@H]1O | SLC6A2 |  |  | 20 µM |  | inhibition | 3% |
| Cc1cc(O)cc(C)c1C[C@H](N)C(=O)N[C@H](C)C(=O)NCC(=O)N[C@@H](Cc1ccc(Cl)cc1)C(=O)N(C)CCC[C@@]1(c2ccc(F)cc2)OCc2cc(C#N)ccc21 | SLC6A2 |  |  | 10 µM |  | inhibition | < 50% |
| CCN(CC)CCCC[C@H](NC(=O)[C@H](CC(C)C)NC(=O)[C@H](C)NC(=O)[C@H](Cc1ccccc1)NC(=O)c1ccc(C(C)(C)C)cc1)C(=O)N[C@@H](CO)C(=O)OC | SLC6A2 | antagonist, radioligand binding |  | 10 µM | relative to: control binding | specific binding | 113% |
| c1ccc(C(NCCNC(c2ccccc2)c2ccccc2)c2ccccc2)cc1 | SLC6A2 | transport, inhibitor |  | 10 µM |  | inhibition | 98% |
| Cc1c(NC(=O)OC[C@@H]2COCCN2)cn2ncnc(Nc3ccc4c(cnn4Cc4cccc(F)c4)c3)c12 | human coronavirus OC43 | virus-induced cell killing | MRC-5 | screen |  | maximum inhibition | 15.1% |
| O=c1ccc2ccccc2o1 | SLC6A2 | antagonist radioligand binding |  | 10 µM, SafetyScreen44 |  | inhibition | -25% |
| C[C@H]1COCCN1c1nc(NCc2cccnc2C(F)(F)F)c2cccnc2n1 | SLC6A2 | binding |  | CEREP panel |  | IC50 | 8.3 µM |
| CCCC[C@@H](NC(=O)[C@@H](N)Cc1c(C)cc(O)cc1C)C(=O)NCC(=O)N[C@@H](Cc1ccc(F)cc1)C(=O)N(C)CCC[C@@]1(c2ccc(F)cc2)OCc2cc(C#N)ccc21 | SLC6A2 |  |  | 10 µM |  | inhibition | < 50% |
| CN[C@@]1(c2ccccc2Cl)CCCCC1=O | SLC6A2 | radioligand binding, antagonist, radioligand displacement |  | 30 µM |  | inhibition | 3% |
| CO[C@H]1C[C@@H]2CC[C@@H](C)[C@@](O)(O2)C(=O)C(=O)N2CCCC[C@H]2C(=O)O[C@H]([C@H](C)C[C@@H]2CC[C@@H](OP(C)(C)=O)[C@H](OC)C2)CC(=O)[C@H](C)/C=C(\C)[C@@H](O)[C@@H](OC)C(=O)[C@H](C)C[C@H](C)/C=C/C=C/C=C/1C | human coronavirus OC43 | virus-induced cell killing | MRC-5 | maximum over 10 doses |  | maximum inhibition | 0% |
| Cn1cccc1-c1cccnc1 | SLC6A2 | binding |  | 50 µM |  | inhibition | -3.74% |

Excerpt of the above:
| SMILES | target or system | assay | system | conditions | how to read | quantity | value |
| --- | --- | --- | --- | --- | --- | --- | --- |
| c1ccc(C(NCCNC(c2ccccc2)c2ccccc2)c2ccccc2)cc1 | SLC6A2 | transport, inhibitor |  | 10 µM |  | inhibition | 98% |
